Published values from different studies.
Every numbered part comes from another study and shows a few of its results, in no order. Changes are numbered by the printed parent chain.

Series 1
Target: RNA binding protein fox-1 homolog 2, RRM domain, GST-SBP tag (RBFOX2, Homo sapiens, UniProt O43251-10, residues 100-194)
Technique: RNA Bind-n-Seq
Molecule type: RNA
Matrix: in vitro
Tested at: 365 nM
Setting: natural RNA segment, single round, ends assumed
Baseline: no-protein control
Reading: higher = stronger binding
Residues (chain): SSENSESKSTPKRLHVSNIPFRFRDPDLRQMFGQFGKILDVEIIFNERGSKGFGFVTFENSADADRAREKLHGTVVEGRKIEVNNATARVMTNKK
Under “RBNS enrichment (R)”, `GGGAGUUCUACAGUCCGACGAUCUUGAGCAGCCUAUGAACCUAAAGACAUACUGCAGUUUGUUCAUAAAUGUAUUCAGUCUUUUAUUCUUUAUAAUUGUGUGUAAAUGUUAACUAAACAGUGGAUUCCUCUCGUGGAAUUCUCGGGUGCCAA` is recorded as 0.562.
Under “RBNS enrichment (R)”, `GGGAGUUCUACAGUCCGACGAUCAUUUCCAGUUUUAAAACUGCCCCUCAGAUACAAUUUCAAAGUAGGGUACACAUUAGAGUGUCUUUGAGUUCAACAAGUUGGUACUGUUGCAAACACCUUCUGAAUUGCCAUGGAAUUCUCGGGUGCCAA` is recorded as 0.411.
`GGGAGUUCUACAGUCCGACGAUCCCACCCCCAGUACCCCAGGUGUGUAUACCCAGGUCAUACACUGCAACCCCAAGUGGUCCCAGGAUCCUUGGCCUGUCAAAAUGGGGGCAGACCCUCCCCAAUUCUAGUUCUGGAAUUCUCGGGUGCCAA` — result for “RBNS enrichment (R)”: 0.261.
For `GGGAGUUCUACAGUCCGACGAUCUUUAGAAACCACCUUCUAGGCGUUUUUGGAACCCUUACUGAAAUCCCUCCCCUUGUUACAGAUGGCGUAGAAGUCACAAGUCUGUUAAUUGGACUGUUGCUUCUUUGCCUUGGAAUUCUCGGGUGCCAA`, “RBNS enrichment (R)” read 0.388.
`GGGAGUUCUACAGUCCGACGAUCUACAGAUUUAAUACAGUUUAUUUUUAAAGAUAGAUCCUUUUAUAGGUGAGAAAAAAACAAUCUGGAAGAAAAAAACCACACAAAGACAUUGAUUCAGCCUGUUUGGCGUUUGGAAUUCUCGGGUGCCAA` — result for “RBNS enrichment (R)”: 0.577.
Under “RBNS enrichment (R)”, `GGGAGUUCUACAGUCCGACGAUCCCAAUAAAAACUGGGAUUUUGAAUGUGGCUCUACAAGUUAAACAUUUCUGUGUGUUGUGUAUGCUAGGUGAUGCCCUCAGAAGGGACUGACUACUAGACUGUAAGUGUGUUGGAAUUCUCGGGUGCCAA` is recorded as 1.75.
`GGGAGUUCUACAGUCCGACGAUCUCUAAGACUGGCAAAAGGACAGCAGUCUUCUAUGUUUAGUCAAUAUUCAUUUCAGUAGAAGAUAAUCUUAUCUAAUUUUUGAGACCAGAAUAAGCCUUUUAAGGUAAACCUGGAAUUCUCGGGUGCCAA` — result for “RBNS enrichment (R)”: 0.483.
Under “RBNS enrichment (R)”, `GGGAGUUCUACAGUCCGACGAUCAGGAUGCAGCCCUGGGAUCCAGCACCCAUGGAAGCUUCUGCUGGGAUGGUGUCACCUAUGGGUUUUGAACCAGUGUGGUAUGGUCCUUGGGAGCUCUGCUCUGAGCUUGCUGGAAUUCUCGGGUGCCAA` is recorded as 1.58.
`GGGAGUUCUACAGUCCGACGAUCGAUUGACAAGGAUAAGUCAGUUGUUUGUAAACUCUAGGUAGCAGAUGAGAAAUAAUUCACUUAAUAUCAGAAAUAUUUUCCAAACACUUUCCUUUAUUUUUUCUUCUGAAUGGAAUUCUCGGGUGCCAA`: “RBNS enrichment (R)” 0.356.
Under “RBNS enrichment (R)”, `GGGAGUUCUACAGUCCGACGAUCUCAUCAUUGAAACUGCUUUUCGUAAUUGCGGGUAGGUUCCUGUAGGUGAGACAUAUUCUCCAUAAAGCUACUGUAGUAGAAUUCAUUCUGGGCAAACACUGAAAAAAGUGUGGAAUUCUCGGGUGCCAA` is recorded as 0.383.
`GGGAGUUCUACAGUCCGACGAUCCUGCCCAGCUUCCAGUUUUUAAAGAGAUGAACAGCUCUCACUUCCUGACUCAGUUUCUCUUGUUGGGUGGGGGCCUUGUGCCACAACCUGCAUGGGGUGCUAGGGUUUAAUGGAAUUCUCGGGUGCCAA`: “RBNS enrichment (R)” 0.487.

Series 2
Target: CCND1, cyclin fold, Cln2 fusion (human)
Technique: yeast growth competition, sequencing
Matrix: yeast
Setting: weak parent motif
Baseline: not given
Reading: higher = stronger binding
Starting sequence: CDT1 docking peptide (human); PPARRRLRLSVDE
Under “normalised enrichment score”, `PAARRRLRLSVDE [P2A]` is recorded as 0.0547.
For `PPARRRLRASVDE [L9A]`, “normalised enrichment score” read -0.202.
`PPARRRARLSVDE [L7A]`: “normalised enrichment score” 0.477.
Under “normalised enrichment score”, `PPARKRLRLSVDE [R5K]` is recorded as -0.217.
`PPARRRLALSVDE [R8A]` — result for “normalised enrichment score”: 0.154.
For `PPARARLRLSVDE [R5A]`, “normalised enrichment score” read -0.337.
Under “normalised enrichment score”, `PPARRRLRLSVDA [E13A]` is recorded as -0.0254.

Series 3
Target: Interferon regulatory factor 5, full length, phosphomimetic (IRF5, Homo sapiens, UniProt Q13568-2, residues 1-514, K96S/S451D/S453D/S456D/S462D)
Technique: protein-binding microarray
Molecule type: double-stranded DNA, one strand shown
Matrix: in vitro
Tested at: 250 nM
Setting: 60-bp whole probe
Added: salmon DNA 0.4 mg/ml
Baseline: random background probes
Reading: higher = stronger binding
Constant ends, left off below: GCCTAGCAC … GTCTTGATTCGCTTGACGCTGCTG
For `AAGTTTCTCCTTTGTAAATAGTGCTAG`, the log fluorescence was 3.63 z-score.
`GACGAACTGTGACTGGAGACGTGCTAG` has a log fluorescence of -0.468 z-score.
`TTAGGTTCCCTTTTCCTTTAGTGCTAG` has a log fluorescence of 0.203 z-score.
With `GACGAACTGGGGTAGCGAGACGTGCTA` the log fluorescence was -0.464 z-score.
`TGAGGACTGCTTCTCCTTTAGTGCTAG` has a log fluorescence of -0.542 z-score.
`GACGGACTGGATTTTCGGGACGTGCTA` gave a log fluorescence of 0.77 z-score.
With `AAAATTTTAACCCTTATTCTGTGCTAG` the log fluorescence was 0.677 z-score.
The log fluorescence of `GCCGGTATCGGTATCGGGACGTGCTAG` is reported as 7.66 z-score.
`TTAGACATCGGGTTTCGATTAGTGCTA` gave a log fluorescence of 7.08 z-score.

Mixed results
`PhoQ, residues 284 288 289 292 302 303 SSTMSV` gave a fold induction of 1.21 (PhoP, residues 12 14 15 18 19 STWGI (Escherichia coli, UniProt P23836); Sort-seq, measured: YFP reporter; E. coli; PhoQ-PhoP variant library, added: 10 µM Mg2+; baseline: high Mg2+ state, higher = stronger signaling).

Excerpt of the above (series 2):
For `PPARRRLRASVDE [L9A]`, “normalised enrichment score” read -0.202.
`PPARRRARLSVDE [L7A]`: “normalised enrichment score” 0.477.
Under “normalised enrichment score”, `PPARKRLRLSVDE [R5K]` is recorded as -0.217.
`PPARRRLALSVDE [R8A]` — result for “normalised enrichment score”: 0.154.
